Results gathered from unrelated publications.
± gives the spread as reported.
Method: steady-state kinetics
B1: LigI (Sphingobium sp. SYK-6, UniProt O87170); chain TNDERILSWNETPSKPRYTPPPGAIDAHCHVFGPMAQFPFSPKAKYLPRDAGPDMLFALRDHLGFARNVIVQASCHGTDNAATLDAIARAQGKARGIAVVDPAIDEAELAALHEGGMRGIRFNFLKRLVDDAPKDKFLEVAGRLPAGWHVVIYFEADILEELRPFMDAIPVPIVIDHMGRPDVRQGPDGADMKAFRRLLDSREDIWFKATCPDRLDPAGPPWDDFARSVAPLVADYADRVIWGTDWPHPNMQDAIPDDGLVVDMIPRIAPTPELQHKMLVTNPMRLYWSEEM
B2: ycjQ (Escherichia coli, UniProt P76043); chain MKKLVATAPRVAALVEYEDRAILANEVKIRVRFGAPKHGTEVVDFRAASPFIDEDFNGEWQMFTPRPADAPRGIEFGKFQLGNMVVGDIIECGSDVTDYAVGDSVCGYGPLSETVIINAVNNYKLRKMPQGSSWKNAVCYDPAQFAMSGVRDANVRVGDFVVVVGLGAIGQIAIQLAKRAGASVVIGVDPIAHRCDIARRHGADFCLNPIGTDVGKEIKTLTGKQGADVIIETSGYADALQSALRGLAYGGTISYVAFAKPFAEGFNLGREAHFNNAKIVFSRACSEPNPDYPRWSRKRIEETCWELLMNGYLNCEDLIDPVVTFANSPESYMQYVDQHPEQSIKMGVTF
B3: enzyme (Arabidopsis thaliana, UniProt Q9STE6); chain MEKNAEKKRIVLVPFPLQGHITPMMQLGQALNLKGFSITVALGDSNRVSSTQHFPGFQFVTIPETIPLSQHEALGVVEFVVTLNKTSETSFKDCIAHLLLQHGNDIACIIYDELMYFSEATAKDLRIPSVIFTTGSATNHVCSCILSKLNAEKFLIDMKDPEVQNMVVENLHPLKYKDLPTSGMGPLERFLEICAEVVNKRTASAVIINTSSCLESSSLSWLKQELSIPVYPLGPLHITTSANFSLLEEDRSCIEWLNKQKLRSVIYISVGSIAHMETKEVLEMAWGLYNSNQPFLWVIRPGTESMPVEVSKIVSERGCIVKWAPQNEVLVHPAVGGFWSHCGWNSTLESIVEGVPMICRPFNGEQKLNAMYIESVWRVGVLLQGEVERGCVERAVKRLIVDDEGVGMRERALVLKEKLNASVRSGGSSYNALDELVHYLEAEYRNT
B4: BaiA1 (Clostridium scindens, UniProt P07914); chain MKLVQDKITIITGGTRGIGFAAAKLFIENGAKVSIFGETQEEVDTALAQLKELYPEEEVLGFAPDLTSRDAVMAAVGTVAQKYGRLDVMINNAGITMNSVFSRVSEEDFKNIMDINVNGVFNGAWSAYQCMKDAKQGVIINTASVTGIYGSLSGIGYPTSKAGVIGLTHGLGREIIRKNIRVVGVAPGVVDTDMTKGLPPEILEDYLKTLPMKRMLKPEEIANVYLFLASDLASGITATTISVDGAYRP
B5: FNO G29W (Thermobifida fusca, UniProt Q47RA9); chain MIMIMASKSSPHDLPDVSGLSIAVLGGTWDQGRGLARRFAMAGHEVILGSRSAERAQAVAAELGEGLPVRGMDNAGAAEAGDVVIVAVPWDGHRALLESLKDVLAGKIVVDCVNPLGFDKRGAYALPVEEGSAAEQAAAILPDSRVVAAFHHVSAVLLLDPEVEKVDLDVLVLGDDREATDVVRALAARIPGVRGVYGGRLRNAHQVEAFTANLISINRRYKAHAGIRITDI
B6: sacB Y196F (Priestia megaterium, UniProt D5DC07); chain KGNDSKDFNNSYGISHITRDNMVKIPQQQNSDQFKVPAFDESTIKNIASAKGKNASGNTIDLDVWDSWPLQNADGTVATYHGYQIVFALAGDPKDSNDTSVYLFYKKAGDKSIDSWKNAGRVFKDSDKFVPNDPHLKNQTQEWSGSGTLTKDGKVRLFYTDYSGKQFGKQTLTTAQVNMSQPNDNTLKVDGVEDYKSIFDGDGKIYQTVQQFIDEGGYDTGDNHTLRDPHYIEDNGHKYLVFEANTGTEDGYQGEDSLYNRAYYGGNNPFFQSEKKKLLEGSNKEKASLANGALGIIELNDDYTLKKVMKPLITSNTVTDEIERANIFKKDGKWYLFTDSRGSKMTIDGIGQDDVYMLGYVSNTLTGKYKPLNDTGLVLHMDLDPNDKTFTYSHFAVPQTKGDNVVITSYMTNRGFYEDNHSTFAPSFLVNIDGSKTSVVKDRVLEQGQLTVDED
B7: enzyme (Brachypodium distachyon, UniProt I1IPY7); chain MEQGKAALGWAARDASGHLSPYNFSRRVQKDDDVTIKVLFCGICHTDLHIIKNEWGNALYPIVPGHEVVGVVTDVGPGVKNFKAGETVGVGYFLDSCRTCDSCSKGHENYCPTLVLTSNGVDYDGATTQGGFSDVVVVNQDYVVRVPDTLPPDGAAPLLCAGVTVYSPMMQYGLNAPGKHLGVVGLGGLGHMAVKFGKAFGMKVTVISSSLRKREEALDRLGADDFLVSSDAEQMKAAAGAMDGIIDTVSAGHPIVPLLELLRPMGQMVVCGAPSEPLQLPAYAVITGGKRIAGNGVGSVRDCQAMLDFAGEHGITADVEVVKMDYVNTAVERLERNDVRYRFVIDVAGSLQQGGAA
B8: MMP2 (Homo sapiens, UniProt P08253); chain YNFFPRKPKWDKNQITYRIIGYTPDLDPETVDDAFARAFQVWSDVTPLRFSRIHDGEADIMINFGRWEHGDGYPFDGKDGLLAHAFAPGTGVGGDSHFDDDELWTLGEGQVVRVKYGNADGEYCKFPFLFNGKEYNSCTDTGRSDGFLWCSTTYNFEKDGKYGFCPHEALFTMGGNAEGQPCKFPFRFQGTSYDSCTTEGRTDGYRWCGTTEDYDRDKKYGFCPETAMSTVGGNSEGAPCVFPFTFLGNKYESCTSAGRSDGKMWCATTANYDDDRKWGFCPDQGYSLFLVAAHEFGHAMGLEHSQDPGALMAPIYTYTKNFRLSQDDIKGIQELYGASPDIDLGTGPTPTLGPVTPEICKQDIVFDGIAQIRGEIFFFKDRFIWRTVTPRDKPMGPLLVATFWPELPEKIDAVYEAPQEEKAVFFAGNEYWIYSASTLERGYPKPLTSLGLPPDVQRVDAAFNWSKNKKTYIFAGDKFWRYNEVKKKMDPGFPKLIADAWNAIPDNLDAVVDLQGGGHSYFFKGAYYLKLENQSLKSVKFGSIKSDWLGC
B9: putA G1011P (Rhodobacter capsulatus, UniProt D5AN87); chain MTDLSALGPKAKFAPEAEVLQALVAQAALPQPQLDRIAARGADLVARIRAEAKPSLMEHFLAQYGLSTREGVALMCLAEAMLRVPDTATIDALIEDKIAPSDWGKHLGTAASSLVNASTWALMLTGKVLDDGAGGIAGTLRGAMRRLGEPVIRAAVGQAMREMGRQFVLGETIEKALERAEKREAEGYTFSYDMLGEAALTAADAERYRLAYAQAITAIGKAATRGSIAANPGISIKLSALHPRYEVAQEARVMAELVPVVRDLARAAARAGIALHIDAEEQDRLALSLRVMAAVIADPETAGWEGFGAVVQAYGKRAGAAIDALAAMARAAGRRINIRLVKGAYWDAEMKRAQVEGHPGFPLFTSKTGTDVAYICLAAKLFGLNDCIYPQFATHNAHTVAAVLEMAAGRPFEFQRLHGMGARLHDIVLRETGGRCRIYAPVGAHRDLLAYLVRRLLENGANSSFVNQIVNESVPPAEVAACPFAALPTARAPRGLLAPADLFGAGRVNAQGFDLSDPEVLARIEAARDVTLPDAAPIVAGPVSGTLRPVRNPATGAVVAQVTEADAATVALALDAAQVWSAPAATRAAVLCRAADLYEENFGPIFAALAQEAGKTLGDAVSELREAVDFLRYYAAEGAADTRPPRGAVVAISPWNFPLAIFTGQVAAALMAGNAVLAKPAEQTPIIAALAVRLLHQAGVPETALQLLPGDGPTVGAALTRDPRVAGVVFTGSTETAQIIARAMAAHLAPGTPLIAETGGLNAMVVDSTALPEQAVRDVVASAFRSAGQRCSALRCLYVQDDIAPHLIGMLKGAMEELVSGDPARLSTDVGPVIDAEAKAGIETYLAANKARILHRSTAPEGGHFVAPALLQVGGIADLEREIFGPVLHLATFAAEDLPAVIAAINARGYGLTFGLHSRIDARVETVAETIRAGNIYVNRNQIGAVVGSQPFGGEGLSGTGPKAGGPLYLNRFYAPEPVVAVGGWTEAATPILPEARETQLDEIFLPGPTPELNRLTRHQRGPILCLGPGAEAASAQAAAVVALGGQAVQASGAVSPKALETLTPLAGVLWWGAAEMGRAYAQALAVRPGPLVPLITAKPDLAHVAHERHLCVDTTAAGGNAALLAG
UniProt P22106, sequence (whole entry, looked up): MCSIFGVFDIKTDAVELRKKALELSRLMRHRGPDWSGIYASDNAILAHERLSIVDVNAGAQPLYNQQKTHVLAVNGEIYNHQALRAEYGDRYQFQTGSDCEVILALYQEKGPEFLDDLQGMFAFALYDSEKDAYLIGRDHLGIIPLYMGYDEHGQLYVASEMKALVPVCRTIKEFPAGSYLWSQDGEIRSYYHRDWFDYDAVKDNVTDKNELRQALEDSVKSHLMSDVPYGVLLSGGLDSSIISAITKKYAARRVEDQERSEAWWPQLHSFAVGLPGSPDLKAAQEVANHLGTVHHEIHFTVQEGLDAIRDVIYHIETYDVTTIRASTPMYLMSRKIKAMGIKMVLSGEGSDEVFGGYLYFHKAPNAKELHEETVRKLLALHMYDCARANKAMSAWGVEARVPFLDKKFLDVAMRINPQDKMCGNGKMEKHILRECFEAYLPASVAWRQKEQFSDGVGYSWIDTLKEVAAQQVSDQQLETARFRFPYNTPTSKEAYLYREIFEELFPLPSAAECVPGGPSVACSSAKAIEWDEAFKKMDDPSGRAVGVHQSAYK
UniProt Q9UBT6, sequence (whole entry, looked up): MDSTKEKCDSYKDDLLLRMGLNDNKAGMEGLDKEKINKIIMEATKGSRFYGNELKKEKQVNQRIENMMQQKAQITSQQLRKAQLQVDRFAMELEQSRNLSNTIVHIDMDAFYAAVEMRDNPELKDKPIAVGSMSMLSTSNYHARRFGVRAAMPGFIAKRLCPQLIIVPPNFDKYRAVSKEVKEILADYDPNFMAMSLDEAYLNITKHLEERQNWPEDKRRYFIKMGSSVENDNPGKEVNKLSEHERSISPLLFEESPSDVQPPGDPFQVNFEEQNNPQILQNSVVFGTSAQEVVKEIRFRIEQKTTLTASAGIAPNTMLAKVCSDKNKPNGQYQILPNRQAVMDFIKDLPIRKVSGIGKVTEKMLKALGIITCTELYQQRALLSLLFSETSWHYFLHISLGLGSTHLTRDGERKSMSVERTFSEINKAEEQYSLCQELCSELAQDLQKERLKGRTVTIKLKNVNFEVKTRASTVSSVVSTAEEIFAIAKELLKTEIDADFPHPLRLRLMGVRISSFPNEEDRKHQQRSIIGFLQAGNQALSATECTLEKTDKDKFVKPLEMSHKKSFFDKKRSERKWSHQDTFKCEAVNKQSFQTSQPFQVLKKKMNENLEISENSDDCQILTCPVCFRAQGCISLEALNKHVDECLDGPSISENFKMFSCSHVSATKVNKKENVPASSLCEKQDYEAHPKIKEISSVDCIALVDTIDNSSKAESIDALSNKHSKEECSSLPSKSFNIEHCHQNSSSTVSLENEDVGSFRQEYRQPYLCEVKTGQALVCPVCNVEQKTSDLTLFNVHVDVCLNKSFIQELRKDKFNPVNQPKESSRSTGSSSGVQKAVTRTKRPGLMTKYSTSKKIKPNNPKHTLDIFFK
UniProt E1V931, sequence (whole entry, looked up): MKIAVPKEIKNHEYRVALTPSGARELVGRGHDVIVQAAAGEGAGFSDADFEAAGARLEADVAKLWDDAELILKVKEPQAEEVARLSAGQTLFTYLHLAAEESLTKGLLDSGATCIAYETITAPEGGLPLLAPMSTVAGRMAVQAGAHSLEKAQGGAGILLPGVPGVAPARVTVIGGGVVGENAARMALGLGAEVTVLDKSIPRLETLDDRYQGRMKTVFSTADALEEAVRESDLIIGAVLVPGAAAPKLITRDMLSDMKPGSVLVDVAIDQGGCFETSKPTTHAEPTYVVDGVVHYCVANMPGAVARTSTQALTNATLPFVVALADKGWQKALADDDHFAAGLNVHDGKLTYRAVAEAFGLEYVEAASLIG

| Molecule | substrate | pH | temperature | setting | added | kcat [s⁻¹] |
| --- | --- | --- | --- | --- | --- | --- |
| B1 (LigI) | O=C(O)/C=C(\CC(=O)C(=O)O)C(=O)O | pH 8.25 | 30 °C | reverse reaction, tautomer mixture | – | 116 ± 6 |
| B2 (ycjQ) | CO[C@H]1O[C@H](CO)[C@H](O)C(=O)[C@H]1O | pH 7 | 30 °C | – | NADH 0.3 mM, MnCl2 0.5 mM | 18.5 ± 1.6 |
| B3 (enzyme) | O=c1ccn([C@@H]2O[C@H](CO[P@@](=O)(O)O[P@@](=O)(O)O[C@H]3O[C@H](CO)[C@@H](O)[C@H](O)[C@H]3O)[C@@H](O)[C@H]2O)c(=O)[nH]1 | pH 7.5 | 25 °C | – | – | 0.0194 |
| B4 (BaiA1) | NC(=O)c1ccc[n+]([C@@H]2O[C@H](COP(=O)(O)OP(=O)(O)OC[C@H]3O[C@@H](n4cnc5c(N)ncnc54)[C@H](O)[C@@H]3O)[C@@H](O)[C@H]2O)c1 | pH 8.7 | 37 °C | cofactor varied | glycocholic acid 1.4 mM | 0.3 |
| enzyme (Halomonas elongata, UniProt E1V931) | NC(=O)C1=CN([C@@H]2O[C@H](COP(=O)(O)OP(=O)(O)OC[C@H]3O[C@@H](n4cnc5c(N)ncnc54)[C@H](O)[C@@H]3O)[C@@H](O)[C@H]2O)C=CC1 | pH 8 | 25 °C | cofactor varied | – | 11.2 |
| B5 (FNO G29W) | NC(=O)c1ccc[n+](Cc2ccccc2)c1 | pH 8 | 25 °C | – | F420H2 40 µM | 0.417 ± 0.0183 |
| asnB (Escherichia coli, UniProt P22106) | N[C@@H](CC(=O)O)C(=O)O | pH 8 | 37 °C | apparent | L-glutamine 20 mM | 0.67 ± 0.02 |
| B6 (sacB Y196F) | OC[C@H]1O[C@@](CO)(O[C@H]2O[C@H](CO)[C@@H](O)[C@H](O)[C@H]2O)[C@@H](O)[C@@H]1O | pH 6.9 | – | – | – | 285.9 ± 2.8 |
| B7 (enzyme) | NC(=O)C1=CN([C@@H]2O[C@H](COP(=O)(O)OP(=O)(O)OC[C@H]3O[C@@H](n4cnc5c(N)ncnc54)[C@H](OP(=O)(O)O)[C@@H]3O)[C@@H](O)[C@H]2O)C=CC1 | pH 5.35 | 23 °C | cofactor varied | – | 6.45 |
| B8 (MMP2) | CC(=O)NCC(=O)N1CCC[C@H]1C(=O)N[C@@H](CC(C)C)C(=O)NCC(=O)N[C@@H](CC(C)C)C(=O)N[C@@H](CO)C(=O)N[C@@H](CC(C)C)C(=O)NCC(=O)N[C@@H](CCCCN)C(N)=O | – | – | – | – | 21.1 |
| B9 (putA G1011P) | O=C(O)[C@@H]1CCCN1 | pH 8 | 23 °C | – | – | 22.4 ± 1.4 |
| POLK (Homo sapiens, UniProt Q9UBT6) | Cc1cn([C@H]2C[C@H](O)[C@@H](COP(=O)(O)OP(=O)(O)OP(=O)(O)O)O2)c(=O)[nH]c1=O | pH 8 | 37 °C | misinsertion opposite dT | Mg2+ | 0.00183 ± 0.000167 |
